Assay results of several laboratories.
Protocols differ between the studies behind these lines. Numbers after ± are the reported error.

SMILES | target or system | test | test system | setting | scale | quantity | result
CCc1cnc(NC(=O)c2cc(S(=O)(=O)N3CCOCC3)ccc2N(C)C2CCCC2)s1 | – | – | mouse, HCC827-GR xenograft | intraperitoneal, 10 mg/kg every other day, 8 doses | – | time to tumour volume 500 mm3 | 23.7 days
CSCC[C@H](NC(=O)CNC(=O)[C@H](CC(=O)O)NC(=O)[C@@H](NC(=O)[C@@H](NC(=O)[C@@H](NC(=O)CNC(=O)[C@H](CCC(N)=O)NC(=O)[C@H](CCSC)NC(=O)[C@H](CC(=O)O)NC(=O)[C@H](C)NC(=O)[C@H](C)NC(=O)[C@@H](NC(=O)[C@H](CO)NC(=O)[C@@H](N)CC(C)C)[C@@H](C)O)C(C)C)C(C)C)[C@@H](C)O)C(=O)N[C@@H](C)C(=O)N[C@@H](CO)C(=O)NCC(=O)N[C@@H](CC(C)C)C(=O)N[C@@H](CC(=O)O)C(=O)N[C@@H](CCCCN)C(=O)N[C@@H](CC(=O)O)C(=O)N[C@@H](Cc1ccc(O)cc1)C(=O)N[C@@H](CC(C)C)C(=O)N[C@@H](CCCCN)C(=O)N1CCC[C@H]1C(=O)N[C@@H](CC(=O)O)C(=O)N[C@@H](CC(=O)O)C(=O)O | – | – | patients with progressive disease, p53-positive solid tumours | dose not given, deceased patients | – | survival | 12 to 32 weeks
Nc1ccc(/C=C/C(=O)N2CCc3c(oc4c(-c5ccc(F)cc5)cc(-c5ccc(C(=O)N6CCC(F)(F)CC6)cn5)cc34)C2)cn1 | – | – | mice, MIA PaCa-2 xenograft | intraperitoneal, 100 mg/kg once daily, 20 days | – | tumour growth inhibition | 57.3%
O=C(O)CCCC(=O)O | – | DPPH radical scavenging | – | 62.5 µg/mL | – | inhibition | 48.8 ± 3.33%
O=C(CSc1nc2c(=O)n3cc(-c4ccccc4)[nH]c3nc2n1[C@@H]1O[C@@H]2CO[P@@](=O)(S)O[C@H]2[C@H]1O)NCCOCCOCCOCCOCCOCCOCCOCCOCCNC(=O)CSc1nc2c(=O)n3cc(-c4ccccc4)[nH]c3nc2n1[C@@H]1O[C@@H]2CO[P@@](=O)(S)O[C@H]2[C@H]1O | – | – | rd1 photoreceptor-like cells, mouse | dose not given | – | cell death | toxic
COc1ccc2nc3ccc(OC)cc3c(SCCCN)c2c1 | – | – | 5TGM1-GFP, J:NU mouse myeloma allograft | 50 mg/kg, from day 14 | – | mean survival | 28.5 days
CC[C@H](C)[C@H](NC(=O)[C@H](Cc1c[nH]c2ccccc12)NC(=O)[C@H](CCCNC(=N)N)NC(=O)[C@H](CCCCN)NC(=O)[C@H](CC(C)C)NC(=O)[C@H](CC(=O)O)NC(=O)[C@H](Cc1ccccc1)NC(=O)[C@H](C)NC(=O)[C@H](Cc1ccc(O)cc1)NC(=O)[C@H](CC(N)=O)NC(=O)[C@H](Cc1ccc(O)cc1)NC(=O)[C@H](CCCNC(=N)N)NC(=O)[C@H](Cc1ccc(O)cc1)NC(=O)[C@H](Cc1ccc(O)cc1)NC(=O)[C@@H](NC(=O)[C@H](CC(C)C)NC(=O)[C@H](C)NC(=O)[C@H](CC(N)=O)NC(=O)[C@H](Cc1ccc(O)cc1)NC(C)=O)[C@@H](C)CC)C(=O)N[C@@H](Cc1ccc(O)cc1)C(=O)N[C@@H](CC(C)C)C(N)=O | – | measured: HA-15 tetramer | antigen-experienced tetramer+ CD4 T cells, healthy adults, HLA-DRB1*0101 | dose not given | – | α4β7+ CCR9+ cells | 0%
Cc1ccc(/C=C/C(=O)O)cc1-c1cc2c(cc1C)C(C)(C)CCC2(C)C | – | RNA sequencing, measured: Cyp26b1 mRNA | rat, brain | dose not given, 24 h, single dose | relative to: vehicle | log2 fold change | 0.15
CC(C)C[C@@H]1NC(=O)[C@@H](Cc2c[nH]c3ccccc23)NC(=O)[C@H](CCCNC(=N)N)NC(=O)[C@@H](CCC(=O)O)NC(=O)[C@H](CCC(N)=O)NC(=O)[C@@H](CCC(=O)O)NC(=O)[C@H](CCCNC(=N)N)NC(=O)[C@@H](Cc2c[nH]c3ccccc23)NC1=O | – | flow cytometry | LDLr-/- mouse, western diet, small intestine lamina propria | dose not given | relative to: vehicle | Helios+ to Th17 ratio | increased
COc1ccc([N+](=O)[O-])cc1NC(=O)CCC(=O)[O][Zn][O]C(=O)CCC(=O)Nc1cc([N+](=O)[O-])ccc1OC.c1ccncc1 | – | DPPH scavenging, absorbance | – | 500 µg/mL | – | inhibition | 71.7%
CCOP(=O)(OCC)OCCCCOC(=O)CC1=C(C)C(=Cc2ccc([S+](C)[O-])cc2)c2ccc(F)cc21 (stereo not shown) | – | measured: phospho-ERK | nude mice, orthotopic A549 tumour, tumour | inhalation, dose not given | relative to: vehicle | decrease in phosphorylation | 72%
N=C(N)NCCC[C@H](NC(=O)[C@@H]1CCCN1C(=O)[C@@H]1CSSC[C@H](N)C(=O)N[C@@H](Cc2ccc(O)cc2)C(=O)N[C@@H](Cc2ccccc2)C(=O)N[C@@H](CCC(N)=O)C(=O)N[C@@H](CC(N)=O)C(=O)N1)C(=O)NCC(N)=O | – | – | male Sprague-Dawley rat, conscious | intra-arterial, 20 ng/kg | relative to: pre-injection baseline | peak heart rate decrease | 56 beats/min
CCN(Cc1ccccc1)C(=O)CCc1nc(CN2CCN(C(=O)Cc3ccc(OC)c(OC)c3)CC2)no1 | – | elevated plus maze | mouse, CCI neuropathic pain | 20 mg/kg | – | time in open arms | 10.6 ± 1.4 s
CC(C)C[C@H](NC(=O)[C@H](CCCCN)NC(=O)[C@H](CCCNC(=N)N)NC(=O)[C@@H](CC(C)C)NC(=O)[C@H](Cc1c[nH]c2ccccc12)NC(=O)[C@H](CC(=O)O)NC(=O)[C@H](CCCCN)NC(=O)[C@@H](CC(C)C)NC(=O)[C@H](CCCNC(=N)N)NC(=O)[C@H](CCC(N)=O)NC(=O)[C@@H](NC(=O)[C@@H](CC(C)C)NC(=O)[C@H](CCCNC(=N)N)NC(=O)[C@H](CCCCN)NC(=O)[C@H](Cc1ccc(C(C)(C)C)cc1)NC(=O)CN)C(C)C)C(=O)N[C@H](C(N)=O)C(C)C | – | ELISA | C57BL/6 mouse, catheter infection, peri-catheter tissue | dose not given, 3 d | relative to: untreated infected | IL-17A level | increased
COc1ccc(F)cc1S(=O)(=O)Nc1cnc2c(c1)C(=O)NCCO2 | – | measured: pyrophosphate | cynomolgus monkey | oral, 0.3 and 1 mg/kg, up to 8 h | relative to: vehicle | AUC of plasma PPi change | increased
CC[C@H](C)[C@H](NC(=O)[C@@H](NC(=O)[C@H](CC(=O)O)NC(C)=O)[C@@H](C)O)C(=O)N[C@@H](CCCNC(=N)N)C(=O)N[C@@H](CC(C)C)C(=O)N[C@@H](CC(C)C)C(=O)N[C@@H](Cc1ccccc1)C(=O)N[C@@H](CCC(N)=O)C(=O)N[C@@H](CC(C)C)C(=O)N[C@@H](CCSC)C(=O)N[C@@H](CCCNC(=N)N)C(=O)N1CCC[C@H]1C(=O)N1CCC[C@H]1C(=O)N[C@@H](CC(N)=O)C(=O)N[C@@H](CCSC)C(=O)N[C@H](C(=O)N1CCC[C@H]1C(=O)N[C@@H](C)C(=O)N[C@H](C(=O)N[C@@H](CC(N)=O)C(=O)N[C@@H](C)C(N)=O)C(C)C)[C@@H](C)O | – | TNF-α and/or IFN-γ production | compound-specific CD4 T cell line, healthy adult human | NG, 6 h, 37 °C | – | cytokine-producing tetramer+ CD4 T cells | ~70%
CN[C@](C)(C[18F])C(=O)O | DU-145 tumour model | – | host not given, blood | 30 min, tumour-bearing | – | tracer uptake | 2 %ID/g
CC[C@H](C)[C@H](NC(=O)[C@H](CCCNC(=N)N)NC(=O)[C@H](CCC(N)=O)NC(=O)[C@H](CC(=O)O)NC(=O)[C@H](CC(C)C)NC(=O)[C@H](CC(C)C)NC(=O)[C@H](CC(N)=O)NC(=O)[C@H](Cc1ccccc1)NC(=O)[C@H](CC(=O)O)NC(=O)[C@@H](NC(=O)[C@@H](NC(=O)[C@H](CC(N)=O)NC(=O)CNC(=O)[C@H](CO)NC(C)=O)C(C)C)[C@@H](C)CC)C(=O)N[C@H](C(=O)N[C@@H](Cc1c[nH]c2ccccc12)C(=O)N[C@@H](CCC(N)=O)C(=O)N[C@@H](CC(N)=O)C(=O)N[C@@H](Cc1c[nH]c2ccccc12)C(=O)N[C@@H](Cc1ccc(O)cc1)C(=O)N[C@@H](C)C(N)=O)[C@@H](C)CC | – | measured: HA-19 tetramer | antigen-experienced tetramer+ CD4 T cells, healthy adults, HLA-DRB1*0101 | dose not given | – | α4β7+ CCR9+ cells | 7.69%
CC(C)C[C@@H]1NC(=O)[C@H](C(C)C)NC(=O)[C@H](CO)NC(=O)CNC(=O)CNC(=O)[C@H](CCCNC(=N)N)NC(=O)[C@@H]2CCCN2C(=O)[C@@H](NC(=O)CC[C@H](NC(=O)c2ccc(N(C)Cc3cnc4nc(N)nc(N)c4n3)cc2)C(=O)O)C(C)(C)SSC[C@@H](C(=O)O)NC(=O)CNC(=O)[C@H]([C@@H](C)O)NC(=O)[C@H](C(C)C)NC1=O | – | – | rat adjuvant arthritis | iv, 0.05 mg/kg once daily day 0-14, day 14 | – | paw weight | 3.38 ± 0.11 g
CC(C)C[C@@H]1NC(=O)[C@H](CCCNC(=N)N)NC(=O)[C@H](CCCCN)NC(=O)[C@H](CC(=O)O)NC(=O)[C@H](CCCCN)NC(=O)[C@@H](CO)NC1=O | – | – | mice, orthotopic Panc1_A8 | intraperitoneal, 10 µg/g daily, 12 days | – | tumour weight | 0.62 g
CCOP(=O)(OCC)OCCCCOC(=O)CC1=C(C)/C(=C/c2ccc([S+](C)[O-])cc2)c2ccc(F)cc21 (stereo not shown) | – | hindpaw inflammation, histology | rat, Freund's adjuvant arthritis | oral, 50 mg/kg once daily, prevention protocol | – | inhibition | 38%
CCCCCCCC/C=C\CCCCCCCCOP(O)(O)=S.N | – | – | C57BL/6 mouse | subcutaneous, 1 mg/kg single, day 30, dosed 24 h after irradiation, with: 6.4 Gy total-body irradiation | – | survival increase | 47%
COc1ccc(C2=Nn3c(N/N=C4/C(=O)Nc5ccc(OC(F)(F)F)cc54)nnc3SC2)cc1 | – | angiogenesis | hen egg chorioallantoic membrane | 40 µM | relative to: DMSO vehicle | number of blood vessels | decreased
CC(C)C[C@H](NC=O)C(=O)N[C@@H](C)C(=O)N[C@@H](C)C(=O)N[C@@H](CC(=O)O)C(=O)N[C@@H](CC(C)C)C(=O)N[C@@H](CC(C)C)C(=O)N[C@@H](C)C(=O)N[C@@H](C)C(=O)N[C@@H](CC(C)C)C(=O)NCC(=O)N[C@@H](CC(=O)O)C(=O)N[C@@H](CC(C)C)C(=O)N[C@@H](C)C(=O)N[C@@H](CCCCN)C(=O)N[C@@H](Cc1c[nH]c2ccccc12)C(=O)N[C@@H](CC(C)C)C(=O)N[C@@H](CC(C)C)C(=O)N[C@@H](CC(=O)O)C(=O)N[C@@H](C)C(=O)N[C@@H](CC(C)C)C(=O)N[C@@H](C)C(=O)N[C@@H](CCCCN)C(=O)N[C@@H](C)C(=O)N[C@@H](C)C(=O)N[C@@H](CCCCN)C(=O)N[C@@H](CCCCN)C(=O)O (racemic) | – | carboxyfluorescein release, stopped-flow fluorescence | POPC vesicles 50 µM | up to 1 µM, pH 7.5, peptide/lipid 1:50 | – | time constant | 14.8 s
CC(C)C[C@H](NC(=O)[C@H](C)NC(=O)CNC(=O)[C@H](CO)NC(=O)CNC(=O)[C@H](CCCNC(=N)N)NC(=O)[C@H](CCCNC(=N)N)NC(=O)[C@H](CCCNC(=N)N)NC(=O)[C@H](CCC(N)=O)NC(=O)[C@H](CCCNC(=N)N)NC(=O)[C@H](CCCNC(=N)N)NC(=O)[C@H](CCCCN)NC(=O)[C@H](CCCCN)NC(=O)[C@H](CCCNC(=N)N)NC(=O)CNC(=O)[C@@H](N)Cc1ccc(O)cc1)C(=O)N[C@@H](CO)C(=O)N[C@H](C(=O)N[C@@H](CCC(=O)O)C(=O)N[C@@H](CCCNC(=N)N)C(=O)O)[C@@H](C)O | – | inhibitor | isolated rat heart | concentration not given, ischemia/reperfusion | – | troponin I phosphorylation | no inhibition

Excerpt of the above:
SMILES | target or system | test | test system | setting | scale | quantity | result
COc1ccc([N+](=O)[O-])cc1NC(=O)CCC(=O)[O][Zn][O]C(=O)CCC(=O)Nc1cc([N+](=O)[O-])ccc1OC.c1ccncc1 | – | DPPH scavenging, absorbance | – | 500 µg/mL | – | inhibition | 71.7%
CCOP(=O)(OCC)OCCCCOC(=O)CC1=C(C)C(=Cc2ccc([S+](C)[O-])cc2)c2ccc(F)cc21 (stereo not shown) | – | measured: phospho-ERK | nude mice, orthotopic A549 tumour, tumour | inhalation, dose not given | relative to: vehicle | decrease in phosphorylation | 72%
N=C(N)NCCC[C@H](NC(=O)[C@@H]1CCCN1C(=O)[C@@H]1CSSC[C@H](N)C(=O)N[C@@H](Cc2ccc(O)cc2)C(=O)N[C@@H](Cc2ccccc2)C(=O)N[C@@H](CCC(N)=O)C(=O)N[C@@H](CC(N)=O)C(=O)N1)C(=O)NCC(N)=O | – | – | male Sprague-Dawley rat, conscious | intra-arterial, 20 ng/kg | relative to: pre-injection baseline | peak heart rate decrease | 56 beats/min
